Experimental data of several laboratories.
Each numbered part is a random draw from the data of one study; scales do not carry over between parts. Substitutions count along the parent as printed.

Block 1 — method: DHFR PCA, deep sequencing; sample: yeast; with: (+)-ABA 0.032 µM; relative to: wild-type fitted maximum; reading: higher = stronger binding
Target: ABI1, truncated, D143A, DHFR fusion (Arabidopsis thaliana)
Notes: methotrexate growth selection, single substitutions
Parent: PYL1, truncated, DHFR fusion (Arabidopsis thaliana); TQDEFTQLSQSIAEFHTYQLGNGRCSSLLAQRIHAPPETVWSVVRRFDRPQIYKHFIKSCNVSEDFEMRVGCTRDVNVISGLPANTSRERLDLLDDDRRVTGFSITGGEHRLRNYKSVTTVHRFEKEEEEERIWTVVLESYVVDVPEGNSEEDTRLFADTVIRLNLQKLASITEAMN
For `T39Q`, “relative binding score” read 14.7%.
For `A84I`, “relative binding score” read 31.4%.
`E14L`: “relative binding score” -0.255%.
`L82P` — result for “relative binding score”: -0.121%.
`T154K`: “relative binding score” 0.677%.
`R132C` — result for “relative binding score”: 36.1%.
Under “relative binding score”, `E152D` is recorded as 19.7%.

Block 2 — target: CCND2, cyclin fold, Cln2 fusion (human); method: yeast growth competition, sequencing; sample: yeast; notes: weak parent motif; relative to: not given; reading: higher = stronger binding
Parent: CDKN1B docking peptide (human); PSACRNLFGPVDH; partner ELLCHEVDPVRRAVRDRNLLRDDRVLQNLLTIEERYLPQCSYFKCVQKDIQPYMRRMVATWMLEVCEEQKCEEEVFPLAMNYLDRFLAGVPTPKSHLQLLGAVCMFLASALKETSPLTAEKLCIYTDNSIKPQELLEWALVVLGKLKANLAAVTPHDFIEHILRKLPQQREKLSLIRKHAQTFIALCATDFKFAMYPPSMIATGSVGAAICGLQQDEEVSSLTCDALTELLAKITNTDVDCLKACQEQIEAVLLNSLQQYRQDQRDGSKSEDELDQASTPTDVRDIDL
`V11Q`: “normalised enrichment score” 0.322.
`V11F`: “normalised enrichment score” 0.207.
`R5Y`: “normalised enrichment score” 0.0791.
Under “normalised enrichment score”, `F8D` is recorded as -0.11.

Block 3 — method: universal PBM; form: double-stranded DNA, one strand shown; sample: in vitro; tested at: not given; reading: higher = stronger binding
Target: Sal-like protein 4, full length isoform B (SALL4, Homo sapiens, UniProt Q9UJQ4-2, residues 1-616)
Notes: 8-mer, flanks averaged, mean of replicates
`AGTAGTCG` has an E-score of -0.162.
For `AGGGCTAG`, the E-score was -0.0625.
The E-score of `AAAAGCCG` is reported as -0.17.
`CGATGCTA` gave an E-score of 0.0586.
With `ACGACTGA` the E-score was -0.11.
The E-score of `CGCCTAAG` is reported as -0.227.
`AACTACTT` gave an E-score of 0.0551.
For `AGCATTCA`, the E-score was 0.0443.
`CTGAAGCC` has an E-score of -0.253.
For `ATATCGCG`, the E-score was 0.0296.
The E-score of `CTGGAACA` is reported as 0.0723.

Other studies, line by line
With `PhoQ, residues 284 288 289 292 302 303 SLCLSL` the fold induction was 1.02 (PhoP, residues 12 14 15 18 19 VHSCL (Escherichia coli, UniProt P23836); Sort-seq, refers to: YFP reporter; E. coli; PhoQ-PhoP variant library, with: 10 µM Mg2+; relative to: high Mg2+ state, higher = stronger signaling).

Some of these lines once more (block 3):
The E-score of `AAAAGCCG` is reported as -0.17.
`CTGAAGCC` has an E-score of -0.253.
